{"data": "Measured values from different studies", "note": "Parts stem from different laboratories: compare values within a part only."}
{"data": "Study 1", "target": "Histone acetyltransferase KAT6A, both winged helices, GST fusion (KAT6A, Homo sapiens, UniProt Q92794, residues 1-181)", "technique": "protein binding microarray", "molecule type": "double-stranded DNA, one strand shown", "matrix": "in vitro", "concentration": "not given", "notes": "8-mer, flanks averaged, mean of 2 arrays, mostly near background", "relative to": "not given", "direction": "higher = stronger binding", "Residues (chain)": "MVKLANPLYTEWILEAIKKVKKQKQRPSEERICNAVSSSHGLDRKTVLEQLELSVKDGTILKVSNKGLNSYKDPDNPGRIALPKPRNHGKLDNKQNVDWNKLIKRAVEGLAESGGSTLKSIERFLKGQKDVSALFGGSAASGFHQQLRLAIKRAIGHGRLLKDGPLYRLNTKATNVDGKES"}
{"Sequence": "ACTTTCCG", "E-score": 0.0442}
{"Sequence": "CTCACCAA", "E-score": -0.0761}
{"Sequence": "GCGGTCAA", "E-score": 0.291}
{"Sequence": "ACGAGCGA", "E-score": -0.151}
{"Sequence": "AGGATACG", "E-score": -0.00368}
{"Sequence": "CGGCCCCC", "E-score": 0.0873}
{"Sequence": "ACCTACCG", "E-score": 0.00923}
{"Sequence": "ACGTAGTA", "E-score": 0.107}
{"Sequence": "GTACGCTA", "E-score": 0.0638}
{"Sequence": "CGTCTCTC", "E-score": 0.00162}
{"Sequence": "ATCGCGTA", "E-score": 0.074}
{"Sequence": "ACAAATCA", "E-score": -0.0302}
{"Sequence": "ATAGTGAG", "E-score": -0.143}
{"Sequence": "AATCGCTG", "E-score": 0.112}
{"Sequence": "ATTGTGAA", "E-score": -0.0359}
{"Sequence": "CAATTCGG", "E-score": 0.0647}
{"Sequence": "GCGCCCAA", "E-score": 0.167}
{"Sequence": "AGCACTCA", "E-score": -0.164}
{"Sequence": "AACTGTTC", "E-score": -0.00375}
{"Sequence": "GGAACTAA", "E-score": 0.0444}
{"Sequence": "ATGGTGGA", "E-score": -0.25}
{"Sequence": "ACGCTTTA", "E-score": 0.0629}
{"Sequence": "CCGTACCG", "E-score": 0.349}
{"Sequence": "TAAGATAA", "E-score": -0.111}
{"Sequence": "TAACCGAA", "E-score": -0.0283}
{"data": "Study 2", "target": "Protein max, full length (MAX, Homo sapiens, UniProt P61244-2, residues 1-151)", "technique": "protein-binding microarray", "molecule type": "double-stranded DNA, one strand shown", "matrix": "in vitro", "concentration": "not given", "notes": "k-mer, scored over probes, only values ≥0.25", "direction": "higher = stronger binding"}
{"Sequence": "GCCCCACC", "E-score": 0.266}
{"Sequence": "ATGTGCAG", "E-score": 0.331}
{"Sequence": "AAAGCATG", "E-score": 0.449}
{"Sequence": "CCGACACG", "E-score": 0.295}
{"Sequence": "GTCATGCA", "E-score": 0.3}
{"Sequence": "CATGCTCC", "E-score": 0.399}
{"Sequence": "ACGCGAGT", "E-score": 0.255}
{"Sequence": "ACATGCTC", "E-score": 0.412}
{"Sequence": "CCAACACG", "E-score": 0.353}
{"Sequence": "AAACGCAT", "E-score": 0.292}
{"Sequence": "ATGTGGGG", "E-score": 0.307}
{"Sequence": "CATGTTGA", "E-score": 0.34}
{"Sequence": "AACGTGCA", "E-score": 0.434}
{"Sequence": "ATGCGTGC", "E-score": 0.403}
{"Sequence": "ACGCGGCC", "E-score": 0.26}
{"Sequence": "CATGCTCG", "E-score": 0.403}
{"Sequence": "CATGAGTC", "E-score": 0.303}
{"Sequence": "CAACCACG", "E-score": 0.398}
{"Sequence": "ATAGCATG", "E-score": 0.373}
{"Sequence": "AATGTGCA", "E-score": 0.28}
{"data": "Study 3", "target": "RNA binding protein fox-1 homolog 2, RRM domain, GST-SBP tag (RBFOX2, Homo sapiens, UniProt O43251-10, residues 100-194)", "technique": "RNA Bind-n-Seq", "molecule type": "RNA", "matrix": "in vitro", "concentration": "365 nM", "notes": "natural RNA segment, single round, ends assumed", "relative to": "no-protein control", "direction": "higher = stronger binding", "constant ends, left off below": "GGGAGUUCUACAGUCCGACGAUC … UGGAAUUCUCGGGUGCCAA", "Construct (chain)": "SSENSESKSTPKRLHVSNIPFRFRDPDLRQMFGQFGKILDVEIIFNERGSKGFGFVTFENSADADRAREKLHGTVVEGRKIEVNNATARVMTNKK"}
{"Sequence": "GUGAGUGCUCGAGUGUAUGUGCCCAUUCCUCAUAGGUCUCUUGGCUGCUCUCAAGGUUAAUUUUAACUUGGAGACUUUCAGCUCCUUGAAAGACUAUUAAUCCCUCCAGC", "RBNS enrichment (R)": 0.617}
{"Sequence": "GCCACAGGCACAAGUGGGAAGUGAUGCAGCUCAAAGGUUUGGAUGAGAUGGGAUGUGCAGCGAUUGAGUCGUAGCUGGAGCGAAGGAUGUGCUAAGUUAGGGAUUGGAGG", "RBNS enrichment (R)": 13}
{"Sequence": "UUGAUGCUAAGCCCGGCAGCCUGUGUUUCAUCUACAGGAUGCACAACAUAAAAGAAAAGAUCUGAUUCCCGCAGGUUCUCUUCUGACCUACACACACACACACUAAAAUA", "RBNS enrichment (R)": 0.792}
{"Sequence": "GAGAGAAGCCAGAACAAAUUCCGCUGGUUAUAUUUUCUACCUUGUAAACAGGUCAGCACCCCCACUACUCUUUUUAAAAUCACUUUAGUGAUGGAGAUGUCUUGCAAAGA", "RBNS enrichment (R)": 2.3}
{"Sequence": "GCUAUCUUAUUUUUUUUCUUAUAGAAUUAAUCACAGGUCUUCUUAUCAUUGUGAAAACUCAUGUUGUAUUACUUUUUAUUAAUUGUAAUUUGGGAUACAUAUAAGUUAAU", "RBNS enrichment (R)": 0.66}
{"Sequence": "GCUUGGCUAUGGCCCUGUGUGACUCCAGGUCCCAGGAACCUUGCCUUCGUCAUCUGUGGAUCCAUCCAGAACAGCGGUAUCUGAAGCCCAGGCCAUACUCCCUGCCUCCU", "RBNS enrichment (R)": 0.215}
{"Sequence": "CCCCCAUCCUAAUCAGAGUCAGCACAGCUUUCCUGUCAGAGGAUAGGAACACUUGCUCUUUGAGCCCCGUGACCGACAGUGACCAGGGAUUGGCAUUCUUGGAUUGGCAU", "RBNS enrichment (R)": 0.299}
{"Sequence": "UGUUCAUCUGCUGCUGUUUACAUUCUGGGGGGUUAGGGGGAGUCCCCCUCCCUCCCUUUCCCCCCCAAGCACAGAGGGGAGAGGGGCCAGGGAAGUGGAUGUCUCCUCCC", "RBNS enrichment (R)": 0.372}
{"Sequence": "CGAAGUUUGACACCUAUAUCCCCAUGUUUUGUGACUACAUCCCGUAGUGUCCUGCCUAUUCCUUUCUGGCUACCUAAACGGUUCUCACUCAGGUCCUCUGGAAUAUUCUC", "RBNS enrichment (R)": 0.299}
{"Sequence": "CUCUUGUGGCCACACUAGGUUGUCGCCUUUCAGGCAGUGUCCCGCCACCUUUGCUUCCCGCUCCUUCUGGACAUUCCAGAGCCCUGCACCAAACCCUUACUUGGUGUCUG", "RBNS enrichment (R)": 0.613}
{"Sequence": "CUGCCUCAGUGACUGGGCCUUUACACCGCUGCCAGUCACAGUGCAGCAGCAGUCUAAUGCCAAGGUGCUCUAGAAACACUAAUGUUCCUCCAGGGGGGACUCCUCCCCAC", "RBNS enrichment (R)": 0.239}
{"Sequence": "UUUCAGCUCUAACUGGAUCCUCCCGCCCCAUGGGAUAUGGGGUGGCUGCCCUGAGUGCCCACGCGAGGGCGGCCGCAAGUUGACUAAACGGGGACACACACGGCUGAACC", "RBNS enrichment (R)": 0.248}
{"data": "Study 4", "target": "RING finger protein unkempt homolog, zinc fingers 1-6, SBP tag (UNK, Homo sapiens, UniProt Q9C0B0, residues 30-357)", "technique": "RNA Bind-n-Seq", "molecule type": "RNA", "matrix": "in vitro", "concentration": "100 nM", "notes": "RNA with constant flanks, vertebrate orthologous sites, ends assumed", "relative to": "input RNA pool", "direction": "higher = stronger binding", "constant ends, left off below": "GGGAGUUCUACAGUCCGACGAUC … CAACAGAGGAUUGAGCAUCA", "chain of UniProt Q9C0B0 (30-357, looked up)": "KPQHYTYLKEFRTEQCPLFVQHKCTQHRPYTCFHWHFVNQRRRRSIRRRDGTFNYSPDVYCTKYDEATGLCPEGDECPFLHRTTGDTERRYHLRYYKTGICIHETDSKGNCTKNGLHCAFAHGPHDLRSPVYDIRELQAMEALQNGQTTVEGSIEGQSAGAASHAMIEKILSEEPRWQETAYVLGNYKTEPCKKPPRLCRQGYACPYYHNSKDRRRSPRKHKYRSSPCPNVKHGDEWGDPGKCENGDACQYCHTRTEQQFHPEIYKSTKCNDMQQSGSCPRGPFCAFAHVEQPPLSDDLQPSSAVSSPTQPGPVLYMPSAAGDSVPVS"}
{"Sequence": "GCAAUGAAAAAGCAGCCCUUCUCCCAGCCCCCUUUUCACUAGGAGACACAAACAUUACAAUAGAAGAGCAAUUAAACUCAAUAAAUUUAUCUUUUCAGGAUGAUCCAGAUUCCAGUACCA", "bound/input enrichment [ratio]": 2.43}
{"Sequence": "CUCCCCGUUAUCCCGAAAGUAGAAUUUUUUAAAAUUGUGUUGCCACCACUUGUAAAAAUUUCACAAUAUUAGAAUGACACUAAUGAAGUAAGAAAUUUUUGUUCAUUAUUUUACAAACCA", "bound/input enrichment [ratio]": 0.623}
{"Sequence": "AGUCUAGGUGGGGGUAAGCAUUGACUUCUAAAGAAAGAGAUGAAAUGCUAAAAAUCACACUAGGACCAACUUUAGUUGGAGAAUUCGAAUACACCUCUUUUACAGAAUUCUAAAAUUAAA", "bound/input enrichment [ratio]": 0.376}
{"Sequence": "AGCAACCCAAGGAUUCAGGACUGGUUUUACAAAUAUACCAAGCAGAUAUGGAACUAACAAUAGAAUUGGACAACCAAGACCAUGAUGUACUGUAAUUUAAUUUAUUUUUAUGAAGAAUAU", "bound/input enrichment [ratio]": 0.721}
{"Sequence": "AUCCCUCAGUGACAGUAUGCCUUCAGUGGCUGAUUCCCACUCAAGUCAUUUCUCUGAAUUUAGUUGUUCUGACCUGGAAAGUAUGAAAACUUCCUGUAGUCAUGGUUCCAGUGAUUACCA", "bound/input enrichment [ratio]": 0.536}
{"Sequence": "GUCUGCCCCUAAGUGCACGAGCAUCUGUGCUAACUCUAGAGCUCAUCAUGCGUUUCAUCAUAUUUACACACCAGUUCCCUAAGAACAGCAGUAUAGAUUCAAAGGGACGCCGAUGCUUCC", "bound/input enrichment [ratio]": 0.343}
{"Sequence": "CCGAAAGGCCAAAUUCCCUCCUCCCUUCUACUGCUUCUACCAACUGGAAGCACAGAAAACUAGAAGUUCAUUUAUUUUGUUUUUUAAAAAAAUACACUGAUUUAACAUCCGAUAGGAAUG", "bound/input enrichment [ratio]": 1.82}
{"Sequence": "AAUCAGUAGAAUUACAUAAUACUAAAGUUGCAGUUGAAAGGAUAUCCAAGUAUGUGUUGGUAGUUACUAAAAGAAUUAUAGCUGUUAUUGCCUUGUAUUUAUAGCCCUUGUUUCAGGUUU", "bound/input enrichment [ratio]": 0.978}
{"Sequence": "AUUGACAAUGAAAAGAGCCAAGCAGUAGCAUUUUGUUUUUUUUAUAAAUGUAAAAAUUAGAUUCACUUUGUUUCCUAUUCAGUUUUAAAAAUAAAAAUACCUCAGUGCUGUGUUUCCCAG", "bound/input enrichment [ratio]": 0.555}
{"Sequence": "ACCCCCCACUCCCUGUAAGAGGGAAUGGGGGAAGCCUGAUGACCCUCAGCUGUUCCAAUCUAGUAUUUUUUUUUCUUUUUUAAAAUUACUGUAUUUAUUAUGACGAUGGUGACUCCCCAG", "bound/input enrichment [ratio]": 1.99}
{"Sequence": "AUGCAUUUUGCCACUUGGAUGUGGUCUGCAUGGAAAGCUUCUGGCCUCUUCACAAUACCAAUUUAAUAUGUUUUUUUUUUAAGAUGUUAGGACUUAACUGAAUUUACUAAAAUGUAACUA", "bound/input enrichment [ratio]": 0.524}
{"note": "A few entries again (study 1):"}
{"Sequence": "GGAACTAA", "E-score": 0.0444}
{"Sequence": "GTACGCTA", "E-score": 0.0638}
{"Sequence": "ACGAGCGA", "E-score": -0.151}
{"Sequence": "ACGTAGTA", "E-score": 0.107}
{"Sequence": "ACTTTCCG", "E-score": 0.0442}
